# Experimental data gathered from unrelated publications.
# Every numbered part comes from another study and shows a few of its results, in no order.

# Study 1 — method: Sort-seq; measured: YFP reporter; medium: E. coli; notes: PhoQ-PhoP variant library; added: 10 µM Mg2+; baseline: high Mg2+ state; reading: higher = stronger signaling
# Substance: PhoQ, residues 284 288 289 292 302 303 SMMNNA
target,fold induction
"PhoP, residues 12 14 15 18 19 TQALL (Escherichia coli, UniProt P23836)",72.1
"PhoP, residues 12 14 15 18 19 NYFRM (Escherichia coli, UniProt P23836)",12.1
"PhoP, residues 12 14 15 18 19 QYFSL (Escherichia coli, UniProt P23836)",1.92

# Study 2 — method: protein binding microarray; molecule type: double-stranded DNA, one strand shown; medium: in vitro; concentration: not given; baseline: not given; reading: higher = stronger binding
# Target: Histone acetyltransferase KAT6A, winged helix 2, GST fusion (KAT6A, Homo sapiens, UniProt Q92794, residues 85-181)
# Notes: 8-mer, flanks averaged, mean of 2 arrays, mostly near background
# Residues (chain): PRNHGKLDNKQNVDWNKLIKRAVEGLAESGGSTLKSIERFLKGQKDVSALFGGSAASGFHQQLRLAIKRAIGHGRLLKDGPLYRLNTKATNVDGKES
Oligonucleotide,E-score
ATCGTGTA,-0.0468
CTCGATGA,0.0863
AGGTCGGG,0.0862
ACGAAGAG,-0.00805

# Study 3 — method: protein-binding microarray; molecule type: double-stranded DNA, one strand shown; medium: in vitro; concentration: 250 nM; notes: 60-bp whole probe; added: salmon DNA 0.4 mg/ml; baseline: random background probes; reading: higher = stronger binding
# Target: Interferon regulatory factor 7, full length, phosphomimetic (IRF7, Homo sapiens, UniProt Q92985, residues 1-503, S101K/S471D/S472D/S475D/S476D/S477D/S483D/S484D/S487D)
# Construct (chain): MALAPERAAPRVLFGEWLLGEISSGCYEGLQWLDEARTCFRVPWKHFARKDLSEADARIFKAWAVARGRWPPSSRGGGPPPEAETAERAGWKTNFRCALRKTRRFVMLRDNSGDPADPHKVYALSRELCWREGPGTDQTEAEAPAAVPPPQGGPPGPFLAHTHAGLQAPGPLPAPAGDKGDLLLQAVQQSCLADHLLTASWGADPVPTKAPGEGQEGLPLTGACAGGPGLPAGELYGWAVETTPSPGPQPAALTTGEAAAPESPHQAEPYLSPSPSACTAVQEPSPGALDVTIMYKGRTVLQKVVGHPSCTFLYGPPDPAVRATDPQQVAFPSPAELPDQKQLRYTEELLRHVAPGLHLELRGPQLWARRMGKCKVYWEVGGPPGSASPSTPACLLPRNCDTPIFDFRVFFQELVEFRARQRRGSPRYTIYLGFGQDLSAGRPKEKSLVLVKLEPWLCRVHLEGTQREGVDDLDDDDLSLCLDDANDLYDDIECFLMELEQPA
Oligonucleotide,log fluorescence [z-score]
GCCTAGCACAACGGACTGGGTATCGGGACGTGCTAGGTCTTGATTCGCTTGACGCTGCTG,-0.246
GCCTAGCACGACGGTATCGACTTTCGGGAGGTGCTAGTCTTGATTCGCTTGACGCTGCTG,1.13
GCCTAGCACCCCAATTCTCTTTTCACTTTGTGCTAGGTCTTGATTCGCTTGACGCTGCTG,2.01
GCCTAGCACGACGGCCTCCTTATCCTGACGTGCTAGGTCTTGATTCGCTTGACGCTGCTG,-0.265

# Study 4 — method: universal PBM; molecule type: double-stranded DNA, one strand shown; medium: in vitro; concentration: 600 nM; reading: higher = stronger binding
# Target: Sal-like protein 4, full length isoform A (SALL4, Homo sapiens, UniProt Q9UJQ4, residues 1-1053)
# UniProt Q9UJQ4, sequence (whole entry, looked up): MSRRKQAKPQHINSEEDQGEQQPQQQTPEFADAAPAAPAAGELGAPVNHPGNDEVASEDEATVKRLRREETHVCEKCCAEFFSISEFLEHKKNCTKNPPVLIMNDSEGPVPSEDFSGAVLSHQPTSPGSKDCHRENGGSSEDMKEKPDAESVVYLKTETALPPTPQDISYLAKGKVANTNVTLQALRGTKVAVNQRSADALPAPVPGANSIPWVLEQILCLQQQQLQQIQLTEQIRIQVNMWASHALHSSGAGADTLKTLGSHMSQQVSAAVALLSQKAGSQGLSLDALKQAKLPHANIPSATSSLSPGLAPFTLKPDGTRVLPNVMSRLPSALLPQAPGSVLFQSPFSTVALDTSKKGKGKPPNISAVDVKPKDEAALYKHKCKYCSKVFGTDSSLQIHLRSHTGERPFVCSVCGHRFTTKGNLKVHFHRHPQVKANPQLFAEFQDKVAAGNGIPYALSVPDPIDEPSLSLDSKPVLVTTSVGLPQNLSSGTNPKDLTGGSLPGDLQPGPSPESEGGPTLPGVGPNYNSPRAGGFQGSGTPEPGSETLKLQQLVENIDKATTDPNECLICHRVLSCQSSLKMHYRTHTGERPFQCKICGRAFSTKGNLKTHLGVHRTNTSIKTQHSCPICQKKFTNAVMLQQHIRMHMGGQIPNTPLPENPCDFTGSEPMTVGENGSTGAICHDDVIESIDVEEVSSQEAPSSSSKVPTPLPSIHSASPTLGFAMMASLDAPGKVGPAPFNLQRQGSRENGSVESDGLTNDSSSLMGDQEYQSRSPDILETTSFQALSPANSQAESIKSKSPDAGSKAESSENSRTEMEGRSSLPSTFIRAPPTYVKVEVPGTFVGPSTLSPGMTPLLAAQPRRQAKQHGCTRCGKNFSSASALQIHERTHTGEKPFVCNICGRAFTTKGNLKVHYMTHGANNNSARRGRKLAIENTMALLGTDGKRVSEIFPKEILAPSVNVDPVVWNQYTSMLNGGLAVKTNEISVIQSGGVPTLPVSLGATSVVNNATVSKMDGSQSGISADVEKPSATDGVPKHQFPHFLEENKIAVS
# Notes: 8-mer, flanks averaged, mean of replicates
Oligonucleotide,E-score
ATAGAGAC,0.168
CTTCCCTC,-0.0837
GACAACGC,-0.18
CGAAGGGC,-0.274
GACAATAA,0.27

# Repeated from above (study 2):
Oligonucleotide,E-score
AGGTCGGG,0.0862
ACGAAGAG,-0.00805
